Measurements pooled from the literature.
Each numbered part is a random draw from the data of one study; scales do not carry over between parts. Positions count from the first letter of the parent shown.

Sample 1 — method: RNA Bind-n-Seq; molecule type: RNA; matrix: in vitro; tested at: 200 nM; notes: whole 134-nt RNA, ends assumed; with: 150 mM KCl; baseline: input library; reading: higher = stronger binding
Target: Ras GTPase-activating protein-binding protein 1, full length (G3BP1, Homo sapiens, UniProt Q13283)
UniProt Q13283, sequence (whole entry, looked up): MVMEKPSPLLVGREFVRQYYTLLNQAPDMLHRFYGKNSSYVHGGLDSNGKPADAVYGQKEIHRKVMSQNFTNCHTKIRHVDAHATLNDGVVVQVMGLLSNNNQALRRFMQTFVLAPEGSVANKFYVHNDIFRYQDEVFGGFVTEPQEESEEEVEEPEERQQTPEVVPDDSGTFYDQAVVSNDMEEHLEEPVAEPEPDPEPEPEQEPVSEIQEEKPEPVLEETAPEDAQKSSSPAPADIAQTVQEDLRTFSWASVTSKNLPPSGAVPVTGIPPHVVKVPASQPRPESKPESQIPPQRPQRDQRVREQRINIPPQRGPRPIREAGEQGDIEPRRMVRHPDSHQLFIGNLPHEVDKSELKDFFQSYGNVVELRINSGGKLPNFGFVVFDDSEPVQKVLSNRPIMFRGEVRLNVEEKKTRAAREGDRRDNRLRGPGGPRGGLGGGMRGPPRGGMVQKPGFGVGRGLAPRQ
All sequences stand within: GGGAGUUCUACAGUCCGACGAUC … UGGAAUUCUCGGGUGUCAAGG
| Sequence | log2 enrichment |
| --- | --- |
| AAGUCCUGUGCUACACAUCGUAUGUACCGAAUCGGAAAAAGGAAAGGAAAAAAAGGAAAGUAUUAUGUUACGCCGUUCGGAUCUGCACUU | -1.17 |
| UGGCCCUGGUGGCAUGCGGGGAGGAAGAGGUGGCCUCAUGGAUCGUGGUGGUCACGGUGGAAUGUUCAGAGGUGGCCGUGGUGGAGACAG | -0.0378 |
| AAGUCCUGUGCUACACAUCGUAUGUACCGAAUCGGGGCCCGGGGCCCGGGGCCCGGAAAGUAUUAUGUUACGCCGUUCGGAUCUGCACUU | -1.45 |
| AAGUCCUGUGCUACACAUCGUAUGUACCGAAUCGGGGUGGGGUGGGGAAAAAGGGGAAAGUAUUAUGUUACGCCGUUCGGAUCUGCACUU | 0.645 |
| GCAGGAAGUAAAAACAAAUGGAAAUGCUGCGGAUAGUGGCAGGGGUGGGGGUUGCUAAGGAAAGGGUGGGAUGGGAGUGGGUAAAGAGUU | 1.12 |
| ACCAUGCAGGUCGGCAUCUUUGGGAAGUGGGGCAAGGGGGGGAUAGGGAGGGGGGUAACACUUUGGGAACAGGUGGUCCCAGGUCGUUUC | 1.6 |
| UGACUUUAGAGGAGGAUCUGAUGGAUAUGGCAGUGGACGUGGAUUUGGGGAUGGCUAUAAUGGGUAUGGAGGAGGACCUGGAGGUGGCAA | 0.426 |
| UGGGAUGUGGAUUUUGUUUAUUUUUUUAGCUCAUUUCCAGGGGUGGGAAUUUUUUUUUAAUAUGUGUCAUGAAUAAAGUUGUUUUUGAAA | -0.526 |
| UCCUGUGCUACACAUCGUAUGUACCGAAUCGGGUUUUUUUGGGAAAGGGAAAAAAAGGGAAAGUAUUAUGUUACGCCGUUCGGAUCUGCA | -0.27 |

Sample 2 — target: CCNF, cyclin fold, Cln2 fusion (human); method: yeast growth competition, sequencing; matrix: yeast; notes: strong parent motif; baseline: not given; reading: higher = stronger binding
Starting sequence: CDC6 docking peptide (human); TLKGRRLVFDNQL
| Change | normalised enrichment score |
| --- | --- |
| TPKGRRLVFDNQL [L2P] | 7.47 |
| TLIGRRLVFDNQL [K3I] | 8.81 |
| TWKGRRLVFDNQL [L2W] | 7.1 |
| TLKGRRLPFDNQL [V8P] | 1.65 |
| TLKGRRLVFDNQH [L13H] | 7.57 |
| TLKGRRCVFDNQL [L7C] | 0.944 |
| TLKGRTLVFDNQL [R6T] | 6.03 |

Sample 3 — method: DHFR PCA, deep sequencing; matrix: yeast; with: (+)-ABA 1.4 µM; baseline: wild-type fitted maximum; reading: higher = stronger binding
Target: ABI1, truncated, D143A, DHFR fusion (Arabidopsis thaliana)
Notes: methotrexate growth selection, single substitutions
Starting sequence: PYL1, truncated, DHFR fusion (Arabidopsis thaliana); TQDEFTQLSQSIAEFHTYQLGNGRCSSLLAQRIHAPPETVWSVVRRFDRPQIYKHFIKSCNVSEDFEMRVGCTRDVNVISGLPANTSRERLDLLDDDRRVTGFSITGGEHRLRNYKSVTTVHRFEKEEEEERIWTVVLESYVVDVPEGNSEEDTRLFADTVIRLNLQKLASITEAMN
| Change | relative binding score [%] |
| --- | --- |
| N149E | 21.5 |
| M176S | 34.4 |
| L91H | 1.49 |
| V78P | -2.88 |

Other studies, line by line
| Molecule | target | test | test system | setting | scale | measurement | result |
| --- | --- | --- | --- | --- | --- | --- | --- |
| PhoQ, residues 284 288 289 292 302 303 NLAAMI | PhoP, residues 12 14 15 18 19 TPWLV (Escherichia coli, UniProt P23836) | Sort-seq, refers to: YFP reporter | E. coli | PhoQ-PhoP variant library, with: 10 µM Mg2+ | baseline: high Mg2+ state, higher = stronger signaling | fold induction | 14.7 |

Excerpt of the above (sample 2):
| Change | normalised enrichment score |
| --- | --- |
| TPKGRRLVFDNQL [L2P] | 7.47 |
| TLIGRRLVFDNQL [K3I] | 8.81 |
